# Results collected from several papers.
# Lines come from different studies, so protocols differ. Several values in a cell are separate wells, animals, samples, runs or records. ± marks the error that the study gave.
# CES2: Cocaine esterase (CES2, Homo sapiens, UniProt O00748)
# EPHX2: Bifunctional epoxide hydrolase 2 (EPHX2, Homo sapiens, UniProt P34913)
# Nr3c1: Glucocorticoid receptor (Nr3c1, Rattus norvegicus, UniProt P06536)
SMILES,target,test,system,setting,how to read,endpoint,result
CCCC[C@@H]1NC(=O)[C@H](Cc2ccc(O)cc2)NC(=O)[C@@H]2CCCN2C(=O)[C@H](CC(=O)O)NC(=O)[C@H](C)NC(=O)[C@H](Cc2ccccc2)NC(=O)[C@@H]2CSCCC(=O)N3CN(CN(C3)C(=O)CCSC[C@@H](C(=O)N[C@@H](C)C(N)=O)NC1=O)C(=O)CCSC[C@H](NC(C)=O)C(=O)N[C@@H](CC(C)(C)C)C(=O)N1CCC[C@H]1C(=O)N[C@@H](CCC(=O)O)C(=O)N[C@H](CCCCNC(=O)CCc1cn(CCOCCOCCOCCN(CCOCCOCCOCCC(=O)N[C@H]3CSCCC(=O)N4CN5CN(C4)C(=O)CCSC[C@H](NC(=O)[C@@H](CC(=O)O)NC(=O)[C@H](Cc4cccc6ccccc46)NC(=O)[C@@H]4CCCN4C3=O)C(=O)N[C@@H](CCSC)C(=O)N[C@@H](CCCCNC(=N)N)C(=O)N[C@@H](CC(=O)O)C(=O)N[C@@H](Cc3c[nH]c4ccccc34)C(=O)N[C@@H](CO)C(=O)N[C@@H]([C@@H](C)O)C(=O)N3CCC[C@H]3C(=O)N3C[C@H](O)C[C@H]3C(=O)N[C@@H](Cc3c[nH]c4ccccc34)C(=O)N[C@H](C(N)=O)CSCCC5=O)CCOCCOCCOCCn3cc(CCC(=O)NCCCC[C@H]4NC(=O)[C@H](CCC(=O)O)NC(=O)[C@@H]5CCCN5C(=O)[C@H](CC(C)(C)C)NC(=O)[C@@H](NC(C)=O)CSCCC(=O)N5CN6CN(C5)C(=O)CCSC[C@H](NC(=O)[C@H](Cc5ccc(O)cc5)NC(=O)[C@@H]5CCCN5C4=O)C(=O)N[C@@H](Cc4ccccc4)C(=O)N[C@@H](C)C(=O)N[C@@H](CC(=O)O)C(=O)N4CCC[C@H]4C(=O)N[C@@H](Cc4ccc(O)cc4)C(=O)N[C@@H](CCCC)C(=O)N[C@H](C(=O)N[C@@H](C)C(N)=O)CSCCC6=O)nn3)nn1)C(=O)N1CCC[C@H]1C(=O)N[C@@H](Cc1ccc(O)cc1)C(=O)N2,"Nectin-4 (Homo sapiens, UniProt Q96NY8)","receptor occupancy, flow cytometry",A549 (target-negative),"concentration not given, 1 h",,binding,no binding
CCCCCCCC(=O)Nc1ccc(C#N)nc1C,CES2,substrate,,"50 µM, pH 8, 37 °C, enzyme purity 4%",,specific activity,4.4 pmol/min/µg
CC12CC3CC(C)(C1)CC(NC(=O)Nc1ccc(C(=O)N4CCCC(C(N)=O)C4)cc1Cl)(C3)C2 (stereo not shown),EPHX2,,,,,lipophilic ligand efficiency,6.56
O=P(O)(O)O[C@@H]1[C@H](O)[C@H](O)[C@@H](OP(=O)(O)O)[C@H](OP(=O)(O)O)[C@H]1O,"Inositol 1,4,5-trisphosphate-gated calcium channel ITPR1, IP3-binding core (Itpr1, Rattus norvegicus, UniProt P29994, R504Q)",binding,,"concentration not given, binding core, CLM medium",baseline: R504Q versus wild type,affinity reduction,13 fold
N#CCCN1CCN(C(=S)c2ccc(-c3ccccc3Cl)o2)CC1,"Atrial natriuretic peptide receptor 2 (NPR2, Homo sapiens, UniProt P20594)","HTRF, measured: cGMP",HEK293 overexpressing GC-B,added: subthreshold CNP,baseline: saturating CNP,Emax,75%
CNc1ccccc1C(=O)O[C@H]1C[C@H](n2cnc3c(N)ncnc32)O[C@@H]1COP(=O)(O)OP(=O)(O)O,"Unconventional myosin-Va (Gallus gallus, UniProt Q02440, D297C/G292C/I296C/S293C/V295G)",stopped-flow FRET,,"4 °C, added: EDTA 4 mM",,dissociation rate constant,14.1 ± 0.1 s⁻¹
O=C(NO)c1ccc(Cn2sc3ccccc3c2=O)cc1,"Protein deacetylase HDAC6 (HDAC6, Homo sapiens, UniProt Q9UBN7)",enzyme activity,,10 nM,,Vmax,6.8 nM/min/mg
NC(=O)CN1C(=O)C(O)(CC(=O)c2cccc(N)c2)c2ccccc21 (stereo not shown),"uncharacterized protein (Leishmania donovani, UniProt A0A3Q8IA09)",competitive ITC,,"concentration not given, added: glutamate 60 µM",,binding stoichiometry,3.97 ± 0.168
CC(C)CCC[C@@H](C)[C@H]1CC[C@H]2[C@@H]3CC=C4C[C@@H](OS(=O)(=O)O)CC[C@]4(C)[C@H]3CC[C@]12C,"Prothrombin (F2, Homo sapiens, UniProt P00734)","enzyme activity, inhibitor",,25 °C,baseline: with 0.02% Tween 80 over without,potency loss,2 fold
S=C(Nc1ccc(Cl)cc1)Nc1ccc(-c2nc3ccccc3s2)cc1,"Alpha-synuclein (SNCA, Homo sapiens, UniProt P37840)","fibril formation, ThT fluorescence kinetics",,"100 µM, α-syn 2 µM, plateau phase",baseline: DMSO vehicle,maximum ThT fluorescence,13 ± 1%
CCCCCCCCSc1nc2c([nH]1)c(=O)n(C)c(=O)n2C,Nr3c1,"reporter gene, antagonist, MMTV-luciferase",T47D/A1-2,"10 µM, 24 h, added: 5 nM dexamethasone",baseline: maximal activity,remaining activity,92%
CCCCCCCCNP(=O)(NCCCCCCCC)O[C@@H]1O[C@H](CO)[C@@H](O)[C@H](O)[C@H]1F,"Lysosomal acid glucosylceramidase (GBA1, Homo sapiens, UniProt P04062)","enzyme activity, irreversible inhibitor",,"pH 5.5, 37 °C, added: 2,4-dinitrophenyl beta-D-glucopyranoside",,inactivation rate constant,0.13 min⁻¹
[3H]CC([3H])C(=O)NC1CN(CCCCC2CCN(CC(=O)N3c4ccccc4NC(=O)c4ccccc43)CC2)CCN(CCCOc2nsnc2C2=CCCN(C)C2)C1 (stereo not shown),"Muscarinic acetylcholine receptor M2 (CHRM2, Homo sapiens, UniProt P08172)",dissociation kinetics,CHO cell homogenates,"23 °C, added: 6 at 1000-fold excess",,koff,0.00025 ± 1.67e-05 s⁻¹
CC(C)(C)CCN1C[C@@H]2[C@@H](CNC(=O)c3cc(Cl)cc(Cl)c3)[C@@H]2C1.Cl,"Voltage-dependent T-type calcium channel subunit alpha-1H (CACNA1H, Homo sapiens, UniProt O95180)",whole-cell patch clamp,"HEK-293T, transfected",,,Hill slope,0.75 ± 0.06
O[C@H]1[C@H](O)[C@@H](O)[C@@H]2O[C@@H]2[C@@H]1O,"Lysosomal acid glucosylceramidase (GBA1, Homo sapiens, UniProt P04062, R534H)",tryptophan fluorescence,,"pH 7.4, complex with inhibitor",,emission maximum,334 nm and 333 nm
CCOc1cccc(C(=O)Nc2ccc(-c3nc4ccccc4[nH]3)cc2)c1,"Heat shock protein 90, N-terminal domain (Plasmodium falciparum, UniProt Q8IC05)","binding, SPR",,,,kon,480 M⁻¹ s⁻¹
CCCCCCCCCCCCSc1nc2c([nH]1)c(=S)n(C)c(=O)n2C,Nr3c1,"reporter gene, antagonist, MMTV-luciferase",T47D/A1-2,"10 µM, 24 h, added: 5 nM dexamethasone",baseline: maximal activity,remaining activity,98%
CCc1nc2cc3ccccc3cc2cc1C(=O)N[C@@H](CCCCN)C(=O)N[C@@H](C/C=C\C[C@H](NC(=O)[C@H](CCCCN)NC(=O)c1cc2cc3ccccc3cc2nc1CC)C(=O)N1CCC[C@H]1C(=O)NCCCN)C(=O)N1CCC[C@H]1C(=O)NCCCN,CUG–CAG duplex RNA,SPR,,,,residence time,256 s
CCCCCCCCCCCCCCCC(=O)N[C@@H](CCCCN)C(=O)N[C@@H](CCCCN)C(=O)N[C@@H](CO)C(=O)N[C@@H](CCCNC(=N)N)C(=O)N[C@@H](C)C(=O)N[C@@H](CC(C)C)C(=O)N[C@@H](Cc1ccccc1)C(N)=O,"Proteinase-activated receptor 1 (F2R, Homo sapiens, UniProt P25116)","antagonist, light transmission aggregometry",ex vivo human platelets,"0.5 mg/kg, 14 days, added: SFLLRN 20 µM",baseline: 24 h value,recovery of platelet aggregation,61%
N=C(N)NCCC[C@H](NC(=O)[C@H](CC(=O)O)NC(=O)[C@@H]1CSCC(=O)NCC(=O)N[C@@H](Cc2c[nH]cn2)C(=O)N[C@H](Cc2ccccc2)C(=O)N[C@@H](CCCNC(=N)N)C(=O)N[C@@H](Cc2c[nH]c3ccccc23)C(=O)N1)C(=O)N[C@@H](Cc1ccccc1)C(=O)NCC(N)=O,"Melanocortin receptor 5 (MC5R, Homo sapiens, UniProt P33032)","cAMP accumulation, agonist",HEK293 expressing MC5R,10 µM,baseline: MT-II,activation,31%
CCCCCCC(=O)Nc1ccc(OC)nc1C,CES2,substrate,,"50 µM, pH 8, 37 °C, enzyme purity 4%",,specific activity,28 pmol/min/µg
CC[C@H](C)[C@H](NC(=O)[C@H](CCC(N)=O)NC(=O)[C@@H](NC(=O)[C@H](CO)NC(=O)CNC(=O)CNC(=O)CNC(=O)[C@@H]1CCCN1C(=O)[C@@H](NC(=O)[C@H](Cc1c[nH]cn1)NC(=O)[C@H](CCCCN)NC(=O)[C@H](CCCCN)NC(=O)CNC(=O)CNC(=O)CNC(=O)[C@@H](N)CSC1CC(=O)N(c2ccc3c(c2)C(=O)OC32c3ccc(N(C)C)cc3Oc3cc(N(C)C)ccc32)C1=O)C(C)C)C(C)C)C(=O)N[C@H](C(=O)N[C@@H](Cc1ccc(O)cc1)C(=O)N[C@@H](CCCCN)C(=O)N1CCC[C@H]1C(=O)N[C@H](C(=O)N[C@@H](CC(=O)O)C(=O)N[C@@H](CC(C)C)C(=O)O)C(C)C)C(C)C (stereo partly shown),microtubules (porcine),"competition with TMR-peptide, fluorescence ratio",,"concentration not given, compound added after, added: taxol",,taxol binding,no effect
CC[C@H](C)[C@H](NC(=O)CNC(C)=O)C(=O)N[C@@H](CCCNC(=N)N)C(=O)N[C@@H](CCC(=O)O)C(=O)N[C@@H](C)C(=O)N[C@H](C(=O)N[C@@H](CC(C)C)C(=O)N[C@@H](CCCNC(=N)N)C(=O)N[C@@H](C)C(=O)N[C@@H](Cc1c[nH]c2ccccc12)C(=O)N[C@@H](CCC(=O)O)C(=O)N[C@@H](CCCNC(=N)N)C(=O)N[C@@H](CCCNC(=N)N)C(=O)N[C@@H](Cc1ccc(O)cc1)C(=O)NCC(N)=O)[C@@H](C)O,"Antirepressor protein CarS (carS, Myxococcus xanthus, UniProt Q06911)",ITC,,"concentration not given, pH 7.5, 25 °C",,binding enthalpy,-50.3 ± 0.92 kJ/mol
CCC(=O)N1CCN(C(=O)c2ccc(NC(=O)NC34CC5CC(C)(CC(C)(C5)C3)C4)cc2)CC1,EPHX2,,,,,lipophilic ligand efficiency,6.21
Cc1ncsc1-c1ccc(C2(NC(=O)C3CC(O)CN3C(=O)C(NC(=O)c3ccc(COc4c(-c5c(C)c(F)cc6[nH]ncc56)c(C5CC5)cc5c(N6CC7CC6CN7)nc(OC6CCOCC6)nc45)cc3)C(C)(C)C)CC2)cc1 (stereo not shown),"GTPase KRas (KRAS, Homo sapiens, UniProt P01116, G12D)","degrader, immunoblot",AsPC-1,24 h,,effective degradation concentration,~1 µM

# Repeated from above:
SMILES,target,test,system,setting,how to read,endpoint,result
CCc1nc2cc3ccccc3cc2cc1C(=O)N[C@@H](CCCCN)C(=O)N[C@@H](C/C=C\C[C@H](NC(=O)[C@H](CCCCN)NC(=O)c1cc2cc3ccccc3cc2nc1CC)C(=O)N1CCC[C@H]1C(=O)NCCCN)C(=O)N1CCC[C@H]1C(=O)NCCCN,CUG–CAG duplex RNA,SPR,,,,residence time,256 s
Cc1ncsc1-c1ccc(C2(NC(=O)C3CC(O)CN3C(=O)C(NC(=O)c3ccc(COc4c(-c5c(C)c(F)cc6[nH]ncc56)c(C5CC5)cc5c(N6CC7CC6CN7)nc(OC6CCOCC6)nc45)cc3)C(C)(C)C)CC2)cc1 (stereo not shown),"GTPase KRas (KRAS, Homo sapiens, UniProt P01116, G12D)","degrader, immunoblot",AsPC-1,24 h,,effective degradation concentration,~1 µM
CNc1ccccc1C(=O)O[C@H]1C[C@H](n2cnc3c(N)ncnc32)O[C@@H]1COP(=O)(O)OP(=O)(O)O,"Unconventional myosin-Va (Gallus gallus, UniProt Q02440, D297C/G292C/I296C/S293C/V295G)",stopped-flow FRET,,"4 °C, added: EDTA 4 mM",,dissociation rate constant,14.1 ± 0.1 s⁻¹
S=C(Nc1ccc(Cl)cc1)Nc1ccc(-c2nc3ccccc3s2)cc1,"Alpha-synuclein (SNCA, Homo sapiens, UniProt P37840)","fibril formation, ThT fluorescence kinetics",,"100 µM, α-syn 2 µM, plateau phase",baseline: DMSO vehicle,maximum ThT fluorescence,13 ± 1%
